Results gathered from unrelated publications.
Lines come from different studies, so protocols differ. Several values in a cell are separate wells, animals, samples, runs or records.
Cell line: HaCaT

CC[C@H](C)[C@H](NC(=O)[C@H](C)NC(=O)[C@H](CCCCN)NC(=O)[C@H](CCCCN)NC(=O)[C@@H](N)CCCNC(=N)N)C(=O)N[C@@H](CCCCN)C(=O)N[C@@H](CC(C)C)C(=O)N[C@H](C(=O)N[C@@H](CCCCN)C(=O)N[C@@H](CCCCN)C(=O)N[C@@H](CC(C)C)C(=O)N[C@H](C(=O)N[C@@H](CCCCN)C(=O)N[C@@H](CCCCN)C(=O)N[C@@H](CC(C)C)C(=O)N[C@@H](CCCCN)C(=O)N[C@@H](CCCCN)C(=O)N[C@@H](C)C(=O)N[C@@H](CC(C)C)C(=O)N[C@@H](CCCCN)C(=O)O)C(C)C)C(C)C
cell growth (MTT; 64 mg/L; reference: untreated): 86.4% and 96.4% and 82.1% and 85.9% and 79.3%

CC(=O)Oc1ccc(/C=C/C(=O)Oc2cc(C(F)(F)F)cc(C(F)(F)F)c2)cc1OC(C)=O
subcytotoxic concentration (MTT; 24 h, 10% FBS): 25 µM

CC(C)C[C@H](NC(=O)[C@H](CC(C)C)NC(=O)[C@H](CCCCN)NC(=O)CNC(=O)[C@H](CC(C)C)NC(=O)CNC(=O)[C@H](CO)NC(=O)[C@H](CC(C)C)NC(=O)[C@H](CC(C)C)NC(=O)[C@H](CO)NC(=O)[C@H](CCCCN)NC(=O)[C@H](CC(C)C)NC(=O)[C@H](CCCCN)NC(=O)[C@H](CCCCN)NC(=O)[C@H](C)NC(=O)[C@H](C)NC(=O)[C@H](C)NC(=O)CNC(=O)[C@H](CO)NC(=O)[C@H](Cc1c[nH]c2ccccc12)NC(=O)[C@@H](N)CCCCN)C(=O)O
TC50 (MTS; 24 h): > 100 µM

Cc1ccc(NS(=O)(=O)c2c(C(=O)N3CCCCCC3)c(C)n(C)c2C)c(Cl)c1
viability (100 µM, 60 h): 95.7% and 102%

CC[C@H](C)[C@H](NC(=O)[C@H](CCCNC(=N)N)NC(=O)CNC(=O)[C@H](CCCCN)NC(=O)[C@@H](NC(=O)CNC(=O)[C@H](Cc1c[nH]cn1)NC(=O)[C@@H](NC(=O)[C@H](CC(C)C)NC(=O)[C@H](CO)NC(=O)CNC(=O)[C@H](CC(C)C)NC(=O)CN)C(C)C)C(C)C)C(=O)N[C@@H](Cc1ccccc1)C(=O)N[C@@H](CC(N)=O)C(=O)N[C@@H](Cc1c[nH]cn1)C(=O)N[C@@H](CCCCN)C(=O)N[C@@H](CC(C)C)C(=O)NCC(=O)N[C@@H](CCSC)C(=O)N[C@@H](C)C(=O)N[C@@H](CO)C(=O)N[C@H](C(=O)N[C@H](C(=O)N[C@@H](CCCCN)C(=O)NCC(=O)N[C@H](C(=O)N[C@@H](CC(C)C)C(=O)N[C@@H](CCC(N)=O)C(=O)N[C@@H](CCCCN)C(=O)N[C@@H](CC(C)C)C(=O)N[C@@H](Cc1c[nH]c2ccccc12)C(=O)N[C@@H](CCC(=O)O)C(=O)O)C(C)C)[C@@H](C)CC)C(C)C
IC50 (cytotoxicity, MTT; 24 h, 37 °C): 47.2 µM

CC(C)C[C@H](NC(=O)[C@H](CC(N)=O)NC(=O)[C@H](CCCNC(=N)N)NC(=O)[C@@H](CC(C)C)NC(=O)[C@H](Cc1ccc(-c2ccccc2)cc1)NC(=O)[C@H](CC(=O)O)NC(=O)[C@H](CCCNC(=N)N)NC(=O)[C@@H](CC(C)C)NC(=O)[C@H](CCCCN)NC(=O)[C@H](CCC(N)=O)NC(=O)[C@@H](NC(=O)[C@@H](CC(C)C)NC(=O)[C@H](CCCCN)NC(=O)[C@H](CCCNC(=N)N)NC(=O)[C@H](Cc1ccc(-c2ccccc2)cc1)NC(=O)CN)C(C)C)C(=O)N[C@H](C(N)=O)C(C)C
LC50 (cell viability, MTS; 1 h, 37 °C, 10% FBS): 30 µM

COc1cc(/C=C/C(=O)Oc2cc(C(F)(F)F)cc(C(F)(F)F)c2)ccc1OC(C)=O
CC50 (cell growth or viability, MTT; 24 h): 76.2 µM

CC[C@H](C)[C@H](NC(=O)[C@H](CCC(=O)O)NC(=O)[C@H](CCCNC(=N)N)NC(=O)[C@H](CC(C)C)NC(=O)[C@H](CCCCN)NC(=O)CNC(=O)[C@H](CC(C)C)NC(=O)[C@H](Cc1ccccc1)NC(=O)[C@H](CC(N)=O)NC(=O)[C@H](CCCCN)NC(=O)[C@H](C)NC(=O)[C@H](CC(C)C)NC(=O)CNC(=O)[C@H](CO)NC(=O)[C@@H](NC(=O)[C@@H](NC(=O)[C@H](CO)NC(=O)[C@H](CCCNC(=N)N)NC(=O)[C@H](Cc1c[nH]c2ccccc12)NC(=O)[C@H](Cc1ccccc1)NC(=O)[C@H](CCCNC(=N)N)NC(=O)CNC(=O)[C@H](Cc1ccccc1)NC(=O)CN)C(C)C)[C@@H](C)CC)C(=O)N[C@@H](CO)C(=O)N[C@@H](CCC(N)=O)C(=O)N[C@@H](CC(C)C)C(=O)N[C@@H](Cc1ccc(O)cc1)C(=O)O
IC50 (cytotoxicity, MTT; 24 h, 37 °C): 7.09 µM

CC[C@H](C)[C@H](NC(=O)[C@H](C)NC(=O)[C@H](CCCCN)NC(=O)[C@H](CC(C)C)NC(=O)[C@@H](N)Cc1ccccc1)C(=O)N[C@@H](CCCCN)C(=O)N[C@@H](CCCCN)C(=O)N[C@@H](Cc1ccccc1)C(=O)NCC(=O)N[C@@H](CCCCN)C(=O)N[C@@H](CCC(=O)O)C(=O)N[C@@H](Cc1ccccc1)C(=O)N[C@@H](CCCCN)C(=O)N[C@@H](CCCCN)C(=O)N[C@H](C(=O)NCC(=O)N[C@@H](C)C(=O)N[C@@H](CCCCN)C(=O)N[C@@H](CC(C)C)C(=O)N[C@@H](CCCCN)C(=O)O)[C@@H](C)CC
cell growth (MTT; 16 mg/L; reference: untreated): 90.1% and 91.5% and 97.5% and 93.8% and 84.5%

COc1cc(/C=C/C(=O)Oc2ccc(C(F)(F)F)c(C(F)(F)F)c2)ccc1OC(C)=O
subcytotoxic concentration (MTT; 24 h, 10% FBS): 50 µM

Excerpt of the above:
CC[C@H](C)[C@H](NC(=O)[C@H](CCCNC(=N)N)NC(=O)CNC(=O)[C@H](CCCCN)NC(=O)[C@@H](NC(=O)CNC(=O)[C@H](Cc1c[nH]cn1)NC(=O)[C@@H](NC(=O)[C@H](CC(C)C)NC(=O)[C@H](CO)NC(=O)CNC(=O)[C@H](CC(C)C)NC(=O)CN)C(C)C)C(C)C)C(=O)N[C@@H](Cc1ccccc1)C(=O)N[C@@H](CC(N)=O)C(=O)N[C@@H](Cc1c[nH]cn1)C(=O)N[C@@H](CCCCN)C(=O)N[C@@H](CC(C)C)C(=O)NCC(=O)N[C@@H](CCSC)C(=O)N[C@@H](C)C(=O)N[C@@H](CO)C(=O)N[C@H](C(=O)N[C@H](C(=O)N[C@@H](CCCCN)C(=O)NCC(=O)N[C@H](C(=O)N[C@@H](CC(C)C)C(=O)N[C@@H](CCC(N)=O)C(=O)N[C@@H](CCCCN)C(=O)N[C@@H](CC(C)C)C(=O)N[C@@H](Cc1c[nH]c2ccccc12)C(=O)N[C@@H](CCC(=O)O)C(=O)O)C(C)C)[C@@H](C)CC)C(C)C
IC50 (cytotoxicity, MTT; 24 h, 37 °C): 47.2 µM
